Published values from different studies.
Cell line: NCI-H522

`COc1cc(CNC(=O)C[C@H](C)CCC=C(C)C)ccc1OCc1cn(-c2ccc(Cl)cc2Cl)nn1` gave a growth percent of 55.4% (SRB; 10 µM, 48 h).
`CC(=C(c1ccc(O)cc1)c1ccc(Cl)cc1)c1ccc(Cl)cc1` has a GI50 of 0.85 µM (cell growth or viability, SRB).
For `COc1ccc(C2=Nn3c(NN=C4C(=O)N(Cc5ccccc5)c5ccc(Cl)cc54)nnc3SC2)cc1`, the inhibition was 35% (cell growth or viability, SRB; 10 µM).
`CCC(=C(c1ccc(Cl)cc1)c1ccc(OCCCN(C)C)cc1)c1ccc(OC)cc1` has a GI50 of 6.56 µM (cell growth or viability, SRB).
The growth of `CC(=O)OC[C@H]1O[C@@H](Sc2sc(C(=O)c3ccc(C)cc3)c(N)c2-c2nc3ccccc3s2)[C@H](OC(C)=O)[C@@H](OC(C)=O)[C@@H]1OC(C)=O` is reported as 82.1% (SRB; 10 µM, 48 h; baseline: untreated).
`COc1cc(CNC(=O)C[C@H](C)CCC=C(C)C)ccc1OCc1cn(-c2ccccc2[N+](=O)[O-])nn1` gave a growth percent of 61.9% (SRB; 10 µM, 48 h).
For `CC(=O)OC[C@H]1O[C@@H](Sc2sc(C(=O)c3ccc(Br)cc3)c(N)c2-c2nc3ccccc3s2)[C@H](OC(C)=O)[C@@H](OC(C)=O)[C@@H]1OC(C)=O`, the growth was 63.8% (SRB; 10 µM, 48 h; baseline: untreated).
With `CC/C=C\C/C=C\C/C=C\C/C=C\C/C=C\C/C=C\CCC(=O)Nc1ccn(C2OC(CO)C(O)C2(F)F)c(=O)n1` (stereo not shown) the GI50 was 0.028 µM (cell growth or viability, SRB).
For `C1=[N+]2CCCC[N+]3=Cc4ccc5[n]4[Au-]23[n]2c1ccc2-c1nc2ccccc2nc1-5.F[P-](F)(F)(F)(F)F`, the IC50 was 0.28 µM (cell growth).
`COc1cc(CNC(=O)C[C@H](C)CCC=C(C)C)ccc1O` has a growth percent of 86.9% (SRB; 10 µM, 48 h).

Repeated from above:
`COc1cc(CNC(=O)C[C@H](C)CCC=C(C)C)ccc1OCc1cn(-c2ccccc2[N+](=O)[O-])nn1` gave a growth percent of 61.9% (SRB; 10 µM, 48 h).
